# Published values of several laboratories.
# Protocols differ between the studies behind these lines. Values joined by “and” are separate records of one study, mostly repeats; a detail may differ. ± marks the error that the study gave.
# PPO3: PPO3 (Agaricus bisporus, UniProt C7FF04)
# SLC6A9: Sodium- and chloride-dependent glycine transporter 1 (SLC6A9, Homo sapiens, UniProt P48067)
# USP14: Ubiquitin carboxyl-terminal hydrolase 14 (USP14, Homo sapiens, UniProt P54578)
# Gria2/Glutamate receptor 3: Gria2/Glutamate receptor 3 (Rattus norvegicus, UniProt P19491+P19492)
SMILES,target,test,test system,setting,scale,quantity,result
CC[C@H](C)[C@H](NC(=O)[C@@H](NC(=O)c1ccnc(Cl)c1Cl)C(C)(C)C)C(=O)N[C@H](C(=O)N[C@H](C(=O)N[C@H](C(=O)N[C@@H](CCC(N)=O)C(=O)N[C@@H](Cc1c[nH]cn1)C(=O)N[C@H](CC(C)C)C(=O)N[C@@H](CO)C(=O)NCCOCCOCC(=O)N[C@@H](CCCCNC(=O)CC[C@@H]1NC(=O)[C@@H](CCCNC(=N)N)NC(=O)[C@H](CCCNC(=N)N)NC(=O)[C@@H](CCCNC(=N)N)NC(=O)[C@H](CCCNC(=N)N)NC(=O)[C@H](Cc2ccc3ccccc3c2)NC(=O)[C@@H](Cc2ccccc2)NC1=O)C(N)=O)[C@@H](C)O)[C@@H](C)CC)C(C)(C)O,"Protein phosphatase 3 catalytic subunit alpha, with calcineurin B (PPP3CA, Homo sapiens, UniProt Q08209)",,,"50 µM, together with: p-nitrophenyl phosphate",,enzyme activity,no inhibition
N#CN1CC[C@H](C(=O)Nc2nc3c(s2)CN(C(=O)Cn2cc(CNC(=O)CCCC[C@@H]4SC[C@@H]5NC(=O)N[C@@H]54)nn2)CC3)C1,"E3 ubiquitin-protein ligase HECTD1 (HECTD1, Homo sapiens, UniProt Q9ULT8)","probe binding, affinity probe, neutravidin pull-down LC-MS/MS","HEK293T, cell lysate","5 µM, 1 h, single replicate, unit not given",higher = more pulled down,iBAQ abundance,843000 and 495000 and 798000
N#Cc1ccccc1-c1cc(CN2c3ccccc3C=Cc3ccccc32)on1,PPO3,"enzyme activity, inhibitor",,concentration not given,,apparent Vmax,35.2 µmol/min
Cc1cc(C)cc(COc2cc3c(cc2OCc2cc(C)cc(C)c2)C2CC(O)(Cc4cn(CCOCCOCCNC(=O)CCCCC5SCC6NC(=O)NC65)nn4)CC(C)N2CC3)c1 (stereo not shown),"Cytochrome c oxidase subunit 4 isoform 1, mitochondrial (Homo sapiens, UniProt P13073)","biotinylated probe pull-down, measured: COX4I1",,10 µM probe,reference: heavy over light,SILAC ratio,1.44
CC(C=CC=C(C)C=CC1=C(C)CCCC1(C)C)=CC=O,"Rhodopsin (RHO, Homo sapiens, UniProt P08100, E181K)","ER retention, immunostaining co-localization, measured: opsin with calnexin",COS-7 transfected E181K,10.00 µM,,Pearson correlation coefficient,0.59
CCCCCC=CC=C1C(=O)C=CC1CC=CCCCC(=O)O (stereo not shown),"60 kDa heat shock protein, mitochondrial (Homo sapiens, UniProt P10809)","competitive isoTOP-ABPP, measured: HSPD1 cysteine peptide","proteome, soluble, MDA-MB-231","100 µM, together with: iodoacetamide probe","reference: DMSO over compound-treated, higher = stronger cysteine blockade",isoTOP-ABPP competition ratio,1.5
COc1ccc(C(OCCNCc2ccc(F)c(O)c2F)(c2ccc(OC)cc2)c2ccc(OC)cc2)cc1,SLC6A9,cell-free assay,,1 µM,,remaining signal,104%
CCn1cc(-c2cccc(C(F)(F)F)c2)c2sc(C(=N)NC3CCS(=O)(=O)CC3)cc2c1=O,"EP300 (Homo sapiens, UniProt Q09472)",,,,,ΔTm,7.4 °C
CCc1c(-c2ccc3[nH]ncc3c2)cnc(N)c1-c1ccc(O)cc1,"USP7 (Homo sapiens, UniProt Q93009, V517F)","enzyme activity, inhibitor, Ub-AMC",,,reference: V517F over wild type,IC50 ratio,18
CC(NN)c1nn(-c2ccccc2)c(=O)c2c(N)scc12 (stereo not shown),USP14,"enzyme activity, inhibitor",,17 µM,,inhibition,47%
COc1ccc(C(OCCN2CCC[C@@H]2C(=O)O)(c2ccc(OC)cc2)c2ccc(OC)cc2)cc1,SLC6A9,cell-free assay,,10 µM,,remaining signal,2.7%
CC(C(=O)O)N1C(=O)C(=Cc2ccco2)SC1=S (stereo not shown),USP14,"enzyme activity, inhibitor",,17 µM,,inhibition,17%
COc1cc(/C=C/C=O)cc(OC)c1O,"uncharacterized protein (Solanum tuberosum, UniProt M0ZZL3)",enzyme activity,,inhibitory mode parameter,,Hill coefficient,2 ± 0.2
O=C(O)Cc1cc2c(cc1C(=O)c1ccccc1)OCO2,Gria2/Glutamate receptor 3,"glutamate-evoked current, whole-cell patch clamp",HEK-293T,"concentration not given, glutamate alone after washout, together with: glutamate",,current amplitude after recovery,512 ± 37 pA
CC[C@H](C)[C@H](NC(C)=O)C(=O)N[C@@H](CC(=O)O)C(=O)N1CCC[C@H]1C(=O)N1CCC[C@H]1C(=O)N[C@@H](CC(C)C)C(=O)N[C@@H](Cc1c[nH]cn1)C(=O)N[C@@H](CO)C(=O)N[C@H](C(=O)N[C@@H](C)C(N)=O)[C@@H](C)OP(=O)(O)O,"PLK1 (Homo sapiens, UniProt P53350)","polo-box domain binding, isothermal titration calorimetry",,"concentration not given, 25 °C",,binding entropy,-21.3 cal/(mol·K)
Cc1ncsc1-c1ccc(CNC(=O)[C@@H]2C[C@@H](O)CN2C(=O)[C@@H](NC(=O)C2(F)CC2)C(C)(C)C)c(OCCC2CCN(c3nc(N(C)CCNC(=O)C(C)C)nc(N4CCn5nnc(CO)c5C4)n3)CC2)c1,"VHL/BRD9, with Elongin B/C (Homo sapiens, UniProt P40337+Q9H8M2)",native mass spectrometry,,"5 µM, together with: BRD9 and VCB at 5 µM",reference: unbound BRD9,ternary complex formation,9%
COC(=O)[C@@]1(C)C=C(C(=O)Nc2cccc(C(=O)Nc3ccc(Nc4nccc(-c5cccnc5)n4)c(C)c3)c2)C(=O)CC1,"MAPK8 (Homo sapiens, UniProt P45983)","enzyme activity, inhibitor",,"0.5487 µM, 0 h, unit not given, together with: GSH 10 mM pre-incubation",reference: vehicle,remaining activity,0.11
N[C@H]1C[C@@H](C(=O)O)CC1=C(Cl)Cl,"ornithine aminotransferase (Toxoplasma gondii, UniProt S8EY38)","inactivator, SSDH-coupled NADPH",,together with: GABA substrate,,kinact,0.00167 s⁻¹
CCCC[C@H](NC(=O)[C@H](CCC(N)=O)NC(=O)[C@H](CCC(=O)O)NC(=O)[C@@H]1CCCN1C(=O)[C@@H](NC(=O)[C@H](C)NC(=O)[C@H](CC(N)=O)NC(=O)[C@H](CC(=O)O)NC(=O)CNC(=O)[C@@H]1CCCN1C(=O)[C@H](Cc1ccc(O)cc1)NC(=O)[C@@H](NC(=O)[C@@H]1CCCN1C(=O)[C@H](CCC(=O)O)NC(=O)[C@H](CC(C)C)NC(=O)[C@@H]1CCCN1C(=O)[C@H](C)N)C(C)C)[C@@H](C)O)C(=O)N[C@@H](C)C(=O)N[C@@H](CCC(N)=O)C(=O)N[C@@H](Cc1ccc(O)cc1)C(=O)N[C@@H](C)C(=O)N[C@@H](CCCCNC(=O)c1ccc2c(c1)C(=O)OC21c2ccc(N(C)C)cc2Oc2cc(N(C)C)ccc21)C(=O)N[C@@H](CC(=O)O)C(=O)N[C@@H](CC(C)C)C(=O)N[C@@H](CCCNC(=N)N)C(=O)N[C@@H](CCCNC(=N)N)C(=O)N[C@@H](Cc1ccc(O)cc1)C(=O)N[C@H](C(=O)N[C@@H](CC(N)=O)C(=O)N[C@@H](CCCC)C(=O)N[C@@H](CC(C)C)C(=O)N[C@H](C(=O)N[C@@H](CCCNC(=N)N)C(=O)N1CCC[C@H]1C(=O)N[C@@H](CCCNC(=N)N)C(=O)N[C@@H](Cc1ccc(O)cc1)C(N)=O)[C@@H](C)O)[C@@H](C)CC,"NPY4R (Homo sapiens, UniProt P50391)","binding, NanoBRET",,,reference: mutant over wild type,KD ratio,1
O=C(O)Cc1cc2c(cc1C(=O)c1ccc(Cl)cc1Cl)OCO2,Gria2/Glutamate receptor 3,"glutamate-evoked current, whole-cell patch clamp",HEK-293T,concentration not given,,current amplitude,54 ± 3 pA
C[Si](C)(C)C[C@@H](CN)CC(=O)O,"ADCYAP1R1 (Homo sapiens, UniProt P41586)","ligand displacement, radioligand",,75 µM,,inhibition,1%
CNC1C[S+]2CC[S+]3CC[S+](C1)[Ru-4]321([N]=C=S)[n]2c3ccc(OC)cc3c3c4c(c5cc(F)c[n+]1c5c32)C(=O)NC4=O (stereo not shown),FLT3 ITD,KINOMEscan,,0.1 µM,reference: control,remaining binding,35%
CC[C@H](C)[C@H](NC(=O)[C@@H](NC(=O)[C@@H](NC(=O)[C@@H](NC(=O)[C@H](CCCNC(=N)N)NC(=O)[C@H](CCC(=O)O)NC(=O)[C@H](CCC(=O)O)NC(=O)[C@H](C)NC(=O)[C@H](CCC(=O)O)NC(=O)CNC(=O)[C@H](C)NC(=O)CN)C(C)C)C(C)C)C(C)C)C(=O)N[C@@H](CO)C(=O)N[C@@H](CO)C(=O)N[C@@H](CO)C(=O)N[C@@H](CCC(=O)O)C(=O)N[C@@H](CC(=O)O)C(=O)N[C@@H](CO)C(=O)N[C@@H](CC(=O)O)C(=O)N[C@@H](C)C(=O)N[C@@H](CCC(=O)O)C(=O)N[C@@H](CC(N)=O)C(=O)N[C@@H](CO)C(=O)N[C@@H](CO)C(=O)N[C@@H](CO)C(=O)N[C@@H](CCCNC(=N)N)C(=O)N[C@@H](Cc1ccc(O)cc1)C(=O)O,"Small ubiquitin-related modifier 1 (Homo sapiens, UniProt P63165, C52A)",isothermal titration calorimetry,,"pH 7.4, SUMO1 construct",,-TΔS,-6.45 ± 0.1 kcal/mol
Cc1ccc(O)c2c1NCCC2,USP14,"enzyme activity, inhibitor",,17 µM,,inhibition,55%
OC[C@H]1O[C@@H](Oc2cc3c(O)cc(O)cc3[o+]c2-c2cc(O)c(O)c(O)c2)[C@H](O)[C@@H](O)[C@H]1O,PPO3,fluorescence quenching,,"concentration not given, 298 K",,number of binding sites,1.12
C#CCCCCNC(=O)c1ccc(N(C(=O)C=C)c2ccc(Br)cc2)cc1,"3-ketoacyl-CoA thiolase, mitochondrial (Homo sapiens, UniProt P42765)",mass spectrometry profiling,Ramos cell lysate,"100 µM over 10 µM, UniProt P42765",reference: high over low concentration,reactivity ratio,5.89
Cc1ccc(-n2cc(CSc3nc4ccccc4n3Cc3cn(-c4ccc(C)cc4)nn3)nn2)cc1,DNA topoisomerase I (calf thymus),"enzyme activity, inhibitor",MDA-MB-231,"50, 100, 500 ppm, 30 min, 37 °C",,geometric mean inhibition,38.2%
CC(C)Oc1cc(Cl)ccc1CNc1cc(-c2ccccc2)nc2ncnn12,"GPR3 (Homo sapiens, UniProt P46089, I200W)",cAMP GloSensor,human cells,10 pM,higher is more cAMP,cAMP luminescence,39800 a.u. and 36800 a.u. and 55500 a.u. and 38200 a.u.
O=C1c2ccccc2C(=NS(=O)(=O)c2ccc(F)cc2)CC1Sc1nc[nH]n1 (stereo not shown),USP14,"enzyme activity, inhibitor",,17 µM,,inhibition,78%
C#CCOC(=O)[C@]1(C)C=C(C(=O)Nc2cccc(C(=O)Nc3ccc(C)c(Nc4nccc(-c5cccnc5)n4)c3)c2)C(=O)CC1,"MAPK9 (Homo sapiens, UniProt P45984)","enzyme activity, inhibitor",,"0.006774 µM, unit not given",reference: vehicle,remaining activity,0.923
Fc1ccc(Nc2nc(NC3CCCCC3)c3cc(Br)ccc3n2)cc1F,"ADRB2 (Homo sapiens, UniProt P07550, T164V)","β-arrestin2 recruitment, antagonist, BRET",,mutant T164V,reference: isoprenaline maximal response,maximal inhibition,-0.7%
CC(C)[C@@H]1NC(=O)[C@H](Cc2ccccc2)NC(=O)CSC[C@@H](C(N)=O)NC(=O)[C@H](CCC(=O)O)NC(=O)[C@H](CO)NC(=O)[C@H](Cc2c[nH]c3cccc(Cl)c23)NC(=O)[C@H](C2CCCCC2)NC(=O)[C@H](C(C)C)NC(=O)[C@H](Cc2ccc(O)cc2)NC(=O)[C@H](CC(=O)O)NC(=O)[C@H](Cc2c[nH]c3ccccc23)NC(=O)[C@H](Cc2ccc(N)nc2)NC(=O)[C@H](Cc2c[nH]c3ccc(Cl)cc23)NC(=O)[C@H](CCC(=O)O)NC1=O,"Interleukin-1 receptor-like 2 (IL1RL2, Homo sapiens, UniProt Q9HB29)","reporter gene (SEAP), inhibitor, HEK-Blue IL-36R reporter",HEK-Blue IL-36R cells,"0.015 µM, 6 h, together with: IL-36γ 100 ng/mL",,remaining activity,100%
O=C(O)Cc1cc2c(cc1C(=O)c1ccccc1Br)OCO2,Gria2/Glutamate receptor 3,"glutamate-evoked current, whole-cell patch clamp",HEK-293T,concentration not given,reference: glutamate alone,current amplitude ratio,4.91 ± 0.3
CCCCCCCCCCCCC/C=C/C=O,"Large ribosomal subunit protein uL4 (Homo sapiens, UniProt P36578)","competitive isoTOP-ABPP, measured: RPL4 cysteine peptide",Ramos soluble proteome,"100 µM, together with: iodoacetamide probe","reference: DMSO over compound-treated, higher = stronger cysteine blockade",isoTOP-ABPP competition ratio,1

# Excerpt of the above:
SMILES,target,test,test system,setting,scale,quantity,result
N#CN1CC[C@H](C(=O)Nc2nc3c(s2)CN(C(=O)Cn2cc(CNC(=O)CCCC[C@@H]4SC[C@@H]5NC(=O)N[C@@H]54)nn2)CC3)C1,"E3 ubiquitin-protein ligase HECTD1 (HECTD1, Homo sapiens, UniProt Q9ULT8)","probe binding, affinity probe, neutravidin pull-down LC-MS/MS","HEK293T, cell lysate","5 µM, 1 h, single replicate, unit not given",higher = more pulled down,iBAQ abundance,843000 and 495000 and 798000
N#Cc1ccccc1-c1cc(CN2c3ccccc3C=Cc3ccccc32)on1,PPO3,"enzyme activity, inhibitor",,concentration not given,,apparent Vmax,35.2 µmol/min
